Assay results gathered from unrelated publications.
Values joined by “and” are separate records of one study, mostly repeats; a detail may differ. ± marks the error that the study gave.

`CC(C)n1cc(C#N)c2cc(-n3cc(C(=O)O)cn3)ccc21` gave a Tmax of roughly 3 h (healthy male humans; oral, single and multiple doses).
With `CCCC[C@H](NC(C)=O)C(=O)N[C@H]1CC(=O)NCCCC[C@@H](C(=O)O)NC(=O)[C@H](Cc2c[nH]c3ccccc23)NC(=O)[C@H](CCCN=C(N)N)NC(=O)[C@@H](Cc2ccccc2)NC(=O)[C@H](Cc2cnc[nH]2)NC1=O` the Tmax was 0.55 h (human, plasma; subcutaneous, 1.75 mg, second dose).
`CS(=O)(=O)Nc1ccc(C(=O)O[C@@H](Cc2c(Cl)c[n+]([O-])cc2Cl)c2ccc(OC(F)F)c(OCC3CC3)c2)cc1OCC1CC1` has a Tmax of 1.5 to 3 h (human, plasma; inhaled, 14 days, repeat dose twice daily, steady state).
`N[C@@H](Cc1ccc(O)c(O)c1)C(=O)O` gave a Tmax of 0.167 h and 0.25 h (dry-powder inhaler; human, plasma; inhalation, 60 mg).
`Cn1ncc(Cl)c1-c1cc(C(=O)N[C@H](CN)Cc2ccc(F)c(F)c2)oc1Cl` gave a Tmax of 2 h (human patients, plasma; oral, 10 mg once daily, day 8, repeat dose).
`Nc1ccn([C@@H]2O[C@H](CO)[C@@H](O)C2(F)F)c(=O)n1` has a Tmax of 0.5 h (human cancer patients, plasma; intravenous, 1000 mg/m^2, cycle 1 day 1, given alone, median).
For `COc1ccc2nc([S@@+]([O-])Cc3ncc(C)c(OC)c3C)[nH]c2c1`, the Tmax was 4.5 ± 0.87 h (HPLC; human CYP2C19 ultra-rapid metabolizers, plasma; oral, 40 mg/day, day 1, pantoprazole).
For `CC(=O)c1c(C)c2cnc(Nc3ccc(N4CCNCC4)cn3)nc2n(C2CCCC2)c1=O`, the Tmax was 5.2 ± 2 h (human; oral, 75 mg/m^2 single dose, day 1).
`O=c1[nH]c(=O)c(Cc2cccc(C(F)(F)F)c2)c([C@H]2CC[C@H](c3ccccc3)CC2)[nH]1` gave a Tmax of 3.01 h (human, fasted, plasma; oral, 300 mg single dose, median).
For `CCOc1c([C@H](C)n2nc(C)c3c(N)ncnc32)cc(Cl)c(F)c1[C@@H]1CNC(=O)C1`, the Tmax was no more than 1 h (human; oral, 10 mg, alone or with itraconazole).
With `CCOc1ccc(Cc2cc([C@@H]3S[C@H](CO)[C@@H](O)[C@H](O)[C@H]3O)c(OC)cc2C)cc1` the Tmax was 0.5 h (human, plasma; oral, 10 mg/day, day 1, multiple dose before breakfast).
`COC(=O)c1ccc2c(c1)NC(=O)/C2=C(\Nc1ccc(N(C)C(=O)CN2CCN(C)CC2)cc1)c1ccccc1` gave a Tmax of 4.08 h (human, moderate liver impairment, plasma; oral, 150 mg twice daily, steady state).
With `C#C[C@]1(CO)O[C@@H](n2cnc3c(N)nc(F)nc32)C[C@@H]1O` the Tmax was 1 h (human, plasma; oral, 100 mg once weekly, week 3).
For `C[C@H]1C[C@@H]2[C@H]([C@@H](O)C[C@@]3(C)[C@H]2CC[C@]3(O)C(=O)CO)[C@@]2(C)C=CC(=O)C=C12`, the Tmax was 2 h (measured: total compound; human, plasma; oral, once daily, 32 mg, day 1, median).
For `CCCS(=O)(=O)N[C@H]1C[C@@H](N(C)c2ncnc3[nH]ccc23)C1`, the Tmax was 1 to 2 h (human, hepatic function groups; oral, 200 mg, range of group medians, single dose).
`CC(C)c1nc(N(C)S(C)(=O)=O)nc(-c2ccc(F)cc2)c1/C=C/[C@@H](O)C[C@@H](O)CC(=O)O` gave a Tmax of 4.07 h (human, plasma; oral, median, together with: darolutamide).
`Cc1ccc(NC(=O)c2ccc(CN3CCN(C)CC3)cc2)cc1Nc1nccc(-c2cncc(-c3oncc3C)c2)n1` has a Tmax of 5.65 h (older healthy human adults, plasma; oral, 325 mg single dose, fed, mean).
For `O=C(CCCCCCC(=O)Nc1ccccc1)NO`, the Tmax was 1.8 h (human patients, serum; oral, 1700 mg once daily).
`CCCCCCCOc1ccc(CCC(N)(CO)CO)cc1C(F)(F)F.Cl` gave a Tmax of 12 to 16 h (healthy human males, plasma; oral, 0.125 to 0.75 mg, day 1, median across doses).
With `CCCOc1ccc([C@H]2CNC(=O)N2c2ccc3[nH]cnc3c2)cc1` the Tmax was 1 h (human, elderly, fasted, plasma; oral, 800 mg twice daily, tablet, day 11, median).
With `Cc1ccc(NC(=O)c2ccc(CN3CCNCC3)cc2)cc1Nc1nccc(-c2cccnc2)n1` the Tmax was 2.3 h (human patients, plasma; oral, 400 mg of imatinib, first dose, day 1 of cycle 1).
With `CC(C)NC[C@@H](C(=O)N1CCN(c2ncnc3c2[C@H](C)C[C@H]3O)CC1)c1ccc(Cl)cc1` the Tmax was 1 h (human, Mild hepatic function (Child-Pugh), plasma; oral, 100 mg single dose, median).
`COc1cc(Nc2ncc3c(n2)-c2ccc(Cl)cc2C(c2c(F)cccc2OC)=NC3)ccc1C(=O)O` gave a Tmax of 4.9 ± 3 h (human, phase I; oral, 30 mg single dose).
With `CC(C)c1nc(CN(C)C(=O)N[C@H](C(=O)N[C@@H](Cc2ccccc2)C[C@H](O)[C@H](Cc2ccccc2)NC(=O)OCc2cncs2)C(C)C)cs1` the Tmax was 5 h (human, HIV+/HCV+ with cirrhosis, plasma; oral, total drug, steady state, median, together with: lopinavir/ritonavir twice daily).
`COc1ccnc(C[S+]([O-])c2nc3ccc(OC(F)F)cc3[nH]2)c1OC` (centres unmarked) gave a Tmax of 2.75 ± 1.76 h (HPLC; human CYP2C19 normal metabolizers, plasma; oral, 40 mg/day, day 5, esomeprazole).
For `CCCNS(=O)(=O)Nc1ncnc(OCCOc2ncc(Br)cn2)c1-c1ccc(Br)cc1`, the Tmax was 8 to 30 h (healthy male humans, plasma; 0.2 to 600 mg, median, fasted, across dose groups).
The Tmax of `Cc1[nH]c(/C=C2\C(=O)Nc3ccccc32)c(C)c1CCC(=O)O` is reported as 3.33 ± 2.31 h (human patients; oral, 500 mg/m^2 twice daily, after meal, dose 55).
The Tmax of `C#C[C@]1(O)CC[C@H]2[C@@H]3CCc4cc(O)ccc4[C@H]3CC[C@@]21C` is reported as 1.5 h (human female, plasma; oral, 35 µg, day 1, median, together with: norethindrone 1 mg).
For `O=C(Nc1c(Cl)cncc1Cl)c1ccc(OC(F)F)c(OCC2CC2)c1`, the Tmax was 11.3 h (human adults, ≥18 years, plasma; topical, 0.3% cream once daily, day 15).
The Tmax of `COc1cc2c(cc1OC)[C@H]1CC(=O)[C@H](CC(C)C)CN1CC2` (racemic) is reported as 0.67 h (human CYP2D6 extensive metabolizers, plasma; oral, 25 mg, fasted, median).
For `Nc1ncc(-c2cnn(CCO)c2)c2scc(-c3ccc(NC(=O)Nc4cccc(F)c4)cc3)c12`, the Tmax was 3 h (human patients, plasma; oral, 690 mg once weekly, first dose).
The Tmax of `CCOc1cc([C@@H](CS(C)(=O)=O)N2C(=O)c3cccc(NC(C)=O)c3C2=O)ccc1O[C@@H]1O[C@H](C(=O)O)[C@@H](O)[C@H](O)[C@H]1O` is reported as 6 h (healthy human controls, plasma; oral, 30 mg apremilast, matched to mild impairment).
The Tmax of `O=C(Cc1cccc(OC(F)(F)F)c1)Nc1ccc(CCCCc2nnc(NC(=O)Cc3ccccn3)s2)nn1` is reported as 1 h (human patients, plasma; oral, 400 mg three times daily fasted, cycle 1 day 15 steady state).
`COC(=O)c1ccc2c(c1)NC(=O)/C2=C(\Nc1ccc(N(C)C(=O)CN2CCN(C)CC2)cc1)c1ccccc1` has a Tmax of 3.5 h (human, hepatic impairment Child-Pugh B, plasma; oral, 100 mg single dose, median).
With `C#C[C@]1(O)CC[C@H]2[C@@H]3CCc4cc(O)ccc4[C@H]3CC[C@@]21C` the Tmax was 3 h (human female; day 1, oral contraceptive alone, median).
